Experimental data from different studies.
Parts stem from different laboratories: compare values within a part only.
Chain of UniProt O00141 (whole entry, looked up): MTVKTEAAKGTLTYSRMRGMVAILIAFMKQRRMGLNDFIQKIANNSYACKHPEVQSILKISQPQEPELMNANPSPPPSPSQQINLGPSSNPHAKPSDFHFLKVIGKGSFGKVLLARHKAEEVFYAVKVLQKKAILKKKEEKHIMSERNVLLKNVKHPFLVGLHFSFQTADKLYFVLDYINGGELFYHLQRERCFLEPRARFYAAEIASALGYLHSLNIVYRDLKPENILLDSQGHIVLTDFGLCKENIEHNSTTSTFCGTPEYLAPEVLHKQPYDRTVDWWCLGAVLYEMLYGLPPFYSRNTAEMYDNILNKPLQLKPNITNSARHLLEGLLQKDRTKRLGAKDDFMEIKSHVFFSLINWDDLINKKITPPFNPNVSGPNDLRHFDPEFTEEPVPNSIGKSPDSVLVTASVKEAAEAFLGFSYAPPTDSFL
Chain of UniProt P15056 (whole entry, unmodified, looked up): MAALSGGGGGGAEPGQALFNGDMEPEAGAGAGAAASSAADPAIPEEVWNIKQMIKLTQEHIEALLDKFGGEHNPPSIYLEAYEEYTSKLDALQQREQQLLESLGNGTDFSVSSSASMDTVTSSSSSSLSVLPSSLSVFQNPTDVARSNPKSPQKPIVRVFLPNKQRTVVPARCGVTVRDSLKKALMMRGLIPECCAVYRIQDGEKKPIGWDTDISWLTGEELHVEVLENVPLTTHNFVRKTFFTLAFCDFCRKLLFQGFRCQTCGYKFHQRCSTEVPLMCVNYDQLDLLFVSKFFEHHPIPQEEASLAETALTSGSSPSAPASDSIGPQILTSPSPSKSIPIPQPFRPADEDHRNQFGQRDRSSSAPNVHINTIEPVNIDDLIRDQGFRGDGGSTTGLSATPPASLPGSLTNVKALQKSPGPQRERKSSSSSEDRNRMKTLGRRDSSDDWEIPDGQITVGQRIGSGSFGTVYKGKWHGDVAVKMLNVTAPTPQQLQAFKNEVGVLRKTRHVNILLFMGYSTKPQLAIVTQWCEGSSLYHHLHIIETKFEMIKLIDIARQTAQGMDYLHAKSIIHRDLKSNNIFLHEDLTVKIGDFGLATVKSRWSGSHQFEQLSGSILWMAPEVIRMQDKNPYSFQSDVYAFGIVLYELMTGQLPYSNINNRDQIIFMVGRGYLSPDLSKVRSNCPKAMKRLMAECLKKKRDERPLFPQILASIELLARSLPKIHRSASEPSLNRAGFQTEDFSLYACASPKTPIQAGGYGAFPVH
Chain of UniProt P23458 (whole entry, looked up): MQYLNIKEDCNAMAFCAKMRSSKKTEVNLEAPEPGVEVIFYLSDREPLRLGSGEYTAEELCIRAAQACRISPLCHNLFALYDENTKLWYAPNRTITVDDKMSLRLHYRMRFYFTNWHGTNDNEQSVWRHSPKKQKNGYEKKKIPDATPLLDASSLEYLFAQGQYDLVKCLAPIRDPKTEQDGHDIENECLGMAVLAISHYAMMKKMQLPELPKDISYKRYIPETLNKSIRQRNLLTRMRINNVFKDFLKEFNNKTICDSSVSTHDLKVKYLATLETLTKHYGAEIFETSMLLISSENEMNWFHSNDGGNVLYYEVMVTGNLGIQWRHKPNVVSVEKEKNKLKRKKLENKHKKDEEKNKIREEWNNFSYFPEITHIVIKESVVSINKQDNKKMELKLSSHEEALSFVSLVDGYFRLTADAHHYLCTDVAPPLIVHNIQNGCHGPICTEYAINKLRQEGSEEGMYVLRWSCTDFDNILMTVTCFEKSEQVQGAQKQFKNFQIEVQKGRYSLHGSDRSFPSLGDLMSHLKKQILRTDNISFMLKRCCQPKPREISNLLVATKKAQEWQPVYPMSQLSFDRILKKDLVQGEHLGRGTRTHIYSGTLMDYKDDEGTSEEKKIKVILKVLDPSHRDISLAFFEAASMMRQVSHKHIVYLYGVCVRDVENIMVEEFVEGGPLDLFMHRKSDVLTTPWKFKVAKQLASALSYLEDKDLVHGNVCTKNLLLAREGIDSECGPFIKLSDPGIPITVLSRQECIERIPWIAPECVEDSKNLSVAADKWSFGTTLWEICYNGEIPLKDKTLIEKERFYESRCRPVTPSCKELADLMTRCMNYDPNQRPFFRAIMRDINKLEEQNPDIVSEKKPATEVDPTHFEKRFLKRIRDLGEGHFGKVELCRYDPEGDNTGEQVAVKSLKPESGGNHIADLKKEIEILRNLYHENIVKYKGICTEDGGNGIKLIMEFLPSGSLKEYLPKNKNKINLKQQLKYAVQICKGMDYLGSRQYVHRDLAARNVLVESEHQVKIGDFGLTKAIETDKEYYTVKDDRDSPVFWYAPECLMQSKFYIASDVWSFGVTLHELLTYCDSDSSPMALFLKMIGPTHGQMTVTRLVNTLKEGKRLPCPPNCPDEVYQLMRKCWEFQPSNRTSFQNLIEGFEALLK
Chain of UniProt Q13705 (whole entry, looked up): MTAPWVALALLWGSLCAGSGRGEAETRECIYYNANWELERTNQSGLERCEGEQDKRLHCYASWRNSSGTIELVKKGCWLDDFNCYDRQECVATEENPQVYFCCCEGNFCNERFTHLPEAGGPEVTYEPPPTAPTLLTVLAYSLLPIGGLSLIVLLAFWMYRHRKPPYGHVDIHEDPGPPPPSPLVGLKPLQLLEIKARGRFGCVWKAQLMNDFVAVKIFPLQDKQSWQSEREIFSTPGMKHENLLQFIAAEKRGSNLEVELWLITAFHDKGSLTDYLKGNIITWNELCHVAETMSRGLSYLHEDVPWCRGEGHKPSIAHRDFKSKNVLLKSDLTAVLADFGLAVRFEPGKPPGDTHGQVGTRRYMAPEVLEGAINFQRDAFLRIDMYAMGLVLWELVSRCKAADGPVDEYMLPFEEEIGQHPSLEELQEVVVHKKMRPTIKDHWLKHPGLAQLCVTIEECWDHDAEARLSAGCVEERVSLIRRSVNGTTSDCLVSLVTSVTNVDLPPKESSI
Chain of UniProt O14757 (whole entry, looked up): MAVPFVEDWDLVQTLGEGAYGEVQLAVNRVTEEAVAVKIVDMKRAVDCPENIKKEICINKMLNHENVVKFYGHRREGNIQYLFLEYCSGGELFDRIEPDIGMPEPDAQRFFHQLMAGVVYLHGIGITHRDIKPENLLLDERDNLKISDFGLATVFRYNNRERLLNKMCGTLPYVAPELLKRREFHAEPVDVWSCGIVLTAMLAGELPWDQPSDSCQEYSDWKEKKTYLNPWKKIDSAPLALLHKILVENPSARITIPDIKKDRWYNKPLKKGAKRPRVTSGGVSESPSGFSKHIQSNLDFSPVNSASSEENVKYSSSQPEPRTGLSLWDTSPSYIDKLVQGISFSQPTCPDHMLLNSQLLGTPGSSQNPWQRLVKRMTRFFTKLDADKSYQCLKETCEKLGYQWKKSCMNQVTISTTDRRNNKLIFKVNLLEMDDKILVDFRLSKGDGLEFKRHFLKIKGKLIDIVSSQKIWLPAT
Chain of UniProt P07332 (whole entry, looked up): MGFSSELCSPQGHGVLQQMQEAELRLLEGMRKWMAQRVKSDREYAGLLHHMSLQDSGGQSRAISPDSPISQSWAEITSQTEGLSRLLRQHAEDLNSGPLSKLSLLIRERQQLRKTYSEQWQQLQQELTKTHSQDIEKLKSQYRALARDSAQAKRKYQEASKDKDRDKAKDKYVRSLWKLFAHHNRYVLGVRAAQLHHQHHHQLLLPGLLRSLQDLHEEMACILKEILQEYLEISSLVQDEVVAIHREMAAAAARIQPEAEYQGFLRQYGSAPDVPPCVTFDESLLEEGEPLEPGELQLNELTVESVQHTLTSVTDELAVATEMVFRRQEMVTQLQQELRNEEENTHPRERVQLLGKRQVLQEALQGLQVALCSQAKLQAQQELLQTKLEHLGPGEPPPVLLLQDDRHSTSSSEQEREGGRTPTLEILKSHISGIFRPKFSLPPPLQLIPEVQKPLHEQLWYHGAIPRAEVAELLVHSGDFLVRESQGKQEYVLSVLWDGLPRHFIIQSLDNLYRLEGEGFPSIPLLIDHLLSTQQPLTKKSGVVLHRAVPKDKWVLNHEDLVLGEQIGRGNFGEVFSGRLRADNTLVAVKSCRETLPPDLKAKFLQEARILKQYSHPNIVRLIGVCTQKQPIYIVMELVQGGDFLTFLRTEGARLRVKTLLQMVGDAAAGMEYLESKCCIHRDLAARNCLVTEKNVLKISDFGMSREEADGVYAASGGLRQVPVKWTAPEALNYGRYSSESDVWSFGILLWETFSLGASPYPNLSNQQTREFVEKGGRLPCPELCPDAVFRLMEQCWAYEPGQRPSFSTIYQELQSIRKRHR

Sample 1
Target: Sal-like protein 4, full length isoform B (SALL4, Homo sapiens, UniProt Q9UJQ4-2, residues 1-616)
Technique: universal PBM
Molecule type: double-stranded DNA, one strand shown
Sample: in vitro
Tested at: not given
Notes: 8-mer, flanks averaged, mean of replicates
Reading: higher = stronger binding
Endpoint: E-score
Target sequence (chain): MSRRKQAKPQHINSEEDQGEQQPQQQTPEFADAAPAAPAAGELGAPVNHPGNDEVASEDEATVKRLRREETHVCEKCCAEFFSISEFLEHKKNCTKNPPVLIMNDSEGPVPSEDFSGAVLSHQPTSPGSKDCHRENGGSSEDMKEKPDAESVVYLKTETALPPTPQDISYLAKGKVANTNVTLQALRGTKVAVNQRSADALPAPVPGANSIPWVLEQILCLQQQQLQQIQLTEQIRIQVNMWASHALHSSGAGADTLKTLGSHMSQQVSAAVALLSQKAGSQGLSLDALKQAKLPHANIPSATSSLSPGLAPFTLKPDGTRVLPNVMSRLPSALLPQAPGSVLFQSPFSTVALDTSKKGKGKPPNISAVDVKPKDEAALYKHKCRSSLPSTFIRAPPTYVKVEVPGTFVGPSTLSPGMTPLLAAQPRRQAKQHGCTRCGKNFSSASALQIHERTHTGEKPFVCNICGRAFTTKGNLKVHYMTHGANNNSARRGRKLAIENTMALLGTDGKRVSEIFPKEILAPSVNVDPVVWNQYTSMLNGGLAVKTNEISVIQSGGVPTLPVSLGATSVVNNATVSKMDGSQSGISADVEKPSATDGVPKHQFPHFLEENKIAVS
ATTCGATA: 0.263
CCGCATAA: 0.206
CGACACGA: -0.109
TTCAAGAA: 0.279
AGTACGGG: -0.0914
CGGCATGA: 0.0565
ACTGGGCA: -0.173
CAACGACA: 0.0171

Sample 2
Target: Serine/threonine-protein kinase D2 (PRKD2, Homo sapiens, UniProt Q9BZL6)
Chain of UniProt Q9BZL6 (whole entry, looked up): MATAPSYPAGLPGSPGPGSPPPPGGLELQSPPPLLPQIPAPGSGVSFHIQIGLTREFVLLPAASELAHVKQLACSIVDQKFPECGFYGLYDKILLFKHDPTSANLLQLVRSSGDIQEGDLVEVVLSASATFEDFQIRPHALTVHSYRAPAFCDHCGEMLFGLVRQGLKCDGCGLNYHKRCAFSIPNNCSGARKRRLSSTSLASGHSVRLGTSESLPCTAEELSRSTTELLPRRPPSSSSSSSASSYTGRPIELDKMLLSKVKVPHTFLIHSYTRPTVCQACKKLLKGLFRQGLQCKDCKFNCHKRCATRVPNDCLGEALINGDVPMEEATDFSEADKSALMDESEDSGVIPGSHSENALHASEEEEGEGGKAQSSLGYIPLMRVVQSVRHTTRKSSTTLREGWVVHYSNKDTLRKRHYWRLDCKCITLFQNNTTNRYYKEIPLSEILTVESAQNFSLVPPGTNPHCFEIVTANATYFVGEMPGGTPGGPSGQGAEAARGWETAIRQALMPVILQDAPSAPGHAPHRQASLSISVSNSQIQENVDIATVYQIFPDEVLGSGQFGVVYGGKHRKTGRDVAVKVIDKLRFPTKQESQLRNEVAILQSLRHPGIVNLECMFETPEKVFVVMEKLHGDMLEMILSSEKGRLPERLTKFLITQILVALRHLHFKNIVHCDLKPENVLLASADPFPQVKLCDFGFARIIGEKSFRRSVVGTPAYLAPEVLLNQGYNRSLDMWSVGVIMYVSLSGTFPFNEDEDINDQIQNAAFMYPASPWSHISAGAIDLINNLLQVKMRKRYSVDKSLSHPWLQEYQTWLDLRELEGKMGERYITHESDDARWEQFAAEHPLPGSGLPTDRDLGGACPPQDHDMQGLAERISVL
Read-out: enzyme activity
Mode: inhibitor
Tested at: 0.5 µM
Reference: control
Endpoint: remaining activity
O=C(CCCc1ccc(-c2ccccc2F)cc1)Nc1ccc(O)cc1: 97.6%
Cc1ccc(NC(=O)c2ccc(CN3CCN(C)CC3)cc2)cc1Nc1nc(-c2cccnc2)cs1: 98.2%
CN(C)c1ccc(C=C2C(=O)Nc3ccccc32)cc1: 95.2%
O=C1NC(=O)C(c2cn(CCCn3ccnc3)c3ccccc23)=C1Nc1ccccc1: 94.3%
NCCNc1ncc(C(N)=O)c(Nc2cccc(C(F)(F)F)c2)n1: 33%
Nc1[nH]nc2nc3ccccc3nc12: 94.5%
Nc1ncnc2n[nH]c(Nc3ccc(F)cc3)c12: 81.3%
CNC(=O)c1cc(Oc2ccc(NC(=O)Nc3ccc(Cl)c(C(F)(F)F)c3)cc2)ccn1: 96.2%
Oc1ccc(-c2nc(-c3ccncc3)c(-c3ccc(F)cc3)[nH]2)cc1: 79.9%
COc1ccc(C(=O)Nc2sc3c(c2C(N)=O)CCCC3)cc1OC: 99.4%
COc1cc2ncnc(Nc3ccc(Oc4ccccc4)cc3)c2cc1OC: 100%
Nc1ccc2ncnc(NCCc3ccc(Oc4ccccc4)cc3)c2c1: 98.2%
Cc1ccc(Nc2nccc(N(C)c3ccc4c(C)n(C)nc4c3)n2)cc1S(N)(=O)=O: 90.8%
O=C1NC(=O)C(c2cn(CCCO)c3ncccc23)=C1c1cnccn1: 118%
COc1ccc(CNC(=O)Nc2ncc([N+](=O)[O-])s2)cc1: 97.3%

Sample 3
Target: Max dimerization protein 1, bHLH-zipper, MAX partner unstated (MXD1, Homo sapiens, UniProt Q05195, residues 56-136)
Technique: protein-binding microarray
Molecule type: double-stranded DNA, one strand shown
Sample: in vitro
Tested at: not given
Notes: k-mer, scored over probes, only values ≥0.25
Reading: higher = stronger binding
Endpoint: E-score
Residues (chain): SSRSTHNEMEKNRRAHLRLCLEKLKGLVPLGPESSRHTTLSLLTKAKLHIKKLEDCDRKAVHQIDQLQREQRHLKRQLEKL
CGTGGATA: 0.272
ATGCGCAC: 0.299
ATGTGGGA: 0.343
ACATGTCC: 0.377
ATAGCACG: 0.37
ACGCTGCC: 0.25
ACGTGAGC: 0.262
AGCGCACG: 0.324

Sample 4
SMILES: O=C(NC[C@@H]1[C@H]2CN(C(=O)OCc3cc(C(F)(F)F)cc(C(F)(F)F)c3)C[C@@H]12)c1ccc2[nH]nnc2c1
Read-out: cell-free assay
Technique: competition with immobilised ligand
Tested at: 1 µM
Endpoint: remaining binding
CDK4 (Homo sapiens, UniProt P11802): 95%
BUB1 (Homo sapiens, UniProt O43683): 61%
BRAF (Homo sapiens, UniProt P15056, V600E): 100%
FLT3 (Homo sapiens, UniProt P36888, R834Q): 88%
SGK1 (Homo sapiens, UniProt O00141): 100%
CSNK1G1 (Homo sapiens, UniProt Q9HCP0): 97%
CDC42BPA (Homo sapiens, UniProt Q5VT25): 100%
ACVR2B (Homo sapiens, UniProt Q13705): 100%
PRKACA (Homo sapiens, UniProt P17612): 100%
FES (Homo sapiens, UniProt P07332): 95%
PI4KB (Homo sapiens, UniProt Q9UBF8): 100%
Tyrosine-protein kinase JAK1, JH2 (JAK1, Homo sapiens, UniProt P23458): 100%
CHEK1 (Homo sapiens, UniProt O14757): 92%
LRRK2 (Homo sapiens, UniProt Q5S007, G2019S): 91%

A few entries again (sample 4):
SGK1 (Homo sapiens, UniProt O00141): 100%
CSNK1G1 (Homo sapiens, UniProt Q9HCP0): 97%
CDC42BPA (Homo sapiens, UniProt Q5VT25): 100%
ACVR2B (Homo sapiens, UniProt Q13705): 100%
PRKACA (Homo sapiens, UniProt P17612): 100%
